# Assay results collected from several papers.
# Each line is one published result; not all experiments were run side by side.
# Target: 5-hydroxytryptamine receptor 1A (HTR1A, Homo sapiens, UniProt P08908)
# Chain of UniProt P08908 (whole entry, looked up): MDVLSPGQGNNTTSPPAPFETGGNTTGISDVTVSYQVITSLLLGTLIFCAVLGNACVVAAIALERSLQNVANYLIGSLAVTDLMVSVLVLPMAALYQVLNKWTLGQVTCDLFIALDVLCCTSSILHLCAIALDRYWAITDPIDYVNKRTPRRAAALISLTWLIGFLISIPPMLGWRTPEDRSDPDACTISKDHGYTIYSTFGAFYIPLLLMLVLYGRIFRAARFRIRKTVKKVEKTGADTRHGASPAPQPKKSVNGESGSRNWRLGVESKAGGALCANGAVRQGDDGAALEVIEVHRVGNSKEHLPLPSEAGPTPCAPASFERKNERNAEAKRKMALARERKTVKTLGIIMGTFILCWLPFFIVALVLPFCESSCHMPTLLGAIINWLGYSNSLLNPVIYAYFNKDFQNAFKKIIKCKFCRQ
SMILES,assay,system,setting,endpoint,value
Cc1cccc(O[C@H]2CCC[C@@H](C(C)CNCc3ccncc3)C2)c1 (relative stereo),ligand displacement,,10 µM,inhibition,68%
CNC(=O)C[C@H](Cc1ccc(C#N)cc1)NC(=O)c1cc(-c2ccc(CN[C@H](C)c3ccc(C)cc3)o2)ccc1Cl,"agonist response, antagonist",human cells,"10 µM, 5-HT1A antagonist",inhibition,20%
O=C1c2sc(-c3ccc(N4CCC(CO)CC4)nc3F)nc2CCN1c1cccnc1,"ligand displacement, radioligand",,1 µM,inhibition,-1%
C[Si](C)(C)C[C@@H](CN)CC(=O)O,"ligand displacement, radioligand",,75 µM,inhibition,0%
COc1ccc(S(=O)(=O)N2CCc3ccccc3C2)cc1N1CCN(C(=O)c2ccc(F)cc2C(F)(F)F)CC1,"ligand displacement, radioligand",,1 µM,inhibition,-2.1%
CC1Cc2ccccc2N1C(=O)CN1CCN(c2ccccc2)CC1 (stereo not shown),radioligand binding,,"concentration not given, together with: [3H]8-OH-DPAT",inhibition,56.5%
COc1ncc2nc(C)n(Cc3ncc(S(N)(=O)=O)cc3F)c2c1-c1ccccc1,"agonist, cell-based",,10 µM,activation,14.6%
Cc1ccnc(OC[C@H]2CN(CCN3CCc4ccccc43)CCO2)c1,radioligand binding,,"concentration not given, together with: [3H]8-OH-DPAT",inhibition,27.5%
COc1ccc(C(=O)Nc2c(-c3cccs3)nc3ccccn23)cc1,"ligand displacement, radioligand",,10 µM,inhibition,< 50%
C[Si]1(C[C@H](CN)CC(=O)O)CCCC1,"ligand displacement, radioligand",,70 µM,inhibition,-3%
c1ccc(OC[C@H]2CN(CCN3CCc4ccccc43)CCO2)nc1,radioligand binding,,"concentration not given, together with: [3H]8-OH-DPAT",inhibition,51.7%
Cn1ccc2cc(-n3c(=O)[nH]c4sc5c(c4c3=O)CCCC5)ccc21,"ligand displacement, radioligand",,10 µM,inhibition,3%
CO[C@@H](C)c1c(NC(=O)Nc2cnc(-n3nccn3)c(C(F)(F)F)c2)cnc2sc(C)nc12,"ligand displacement, radioligand",,10 µM,inhibition,2.3%
COCC(=O)N1CCc2cc(-c3csc(NC(=O)c4cc(OC)cc(OC)c4)n3)ccc21,"ligand displacement, radioligand",,10 µM,inhibition,0%
Brc1ccccc1-c1nnc(CSc2nnnn2-c2ccccc2)o1,"ligand displacement, radioligand",,10 µM,inhibition,26%
Cc1[nH]nc2c1N=C(c1ccccc1Cl)c1cnc(N3CCOCC3)cc1N2,ligand displacement,,10 µM,inhibition,-2%

# Some of these lines once more:
SMILES,assay,system,setting,endpoint,value
C[Si]1(C[C@H](CN)CC(=O)O)CCCC1,"ligand displacement, radioligand",,70 µM,inhibition,-3%
